Results gathered from unrelated publications.
Protocols differ between the studies behind these lines. ± gives the spread as reported.
Cell line: PC-3

`C[C@]1([N+](=O)[O-])C(=O)c2ccccc2O[C@@H]1CC(=O)NCC1CCCCC1` gave an IC50 of 43.9 µM (cell growth or viability, SRB; 96 h).
`COc1cc(CNC(=O)CCCC/C=C/C(C)C)ccc1OCc1cn(-c2ccc([N+](=O)[O-])cc2)nn1` gave a growth percent of 78% (SRB; 10 µM, 48 h).
With `C[C@]1([N+](=O)[O-])C(=O)c2ccccc2O[C@@H]1CC(=O)NC1CCCCC1` the IC50 was 3.35 µM (cell growth or viability, SRB; 96 h).
For `COc1cc(CNC(=O)CCCC/C=C/C(C)C)ccc1OCc1cn(-c2ccccc2F)nn1`, the growth percent was 82% (SRB; 10 µM, 48 h).
`COc1cc(-c2c3n(c4c(=O)[nH]nc(O)c24)CCn2cccc2-3)cc(OC)c1OC` gave an IC50 of 81.3 µM (cell growth or viability, MTT; 48 h).
`C[C@]1([N+](=O)[O-])C(=O)c2ccccc2O[C@@H]1CC(=O)Nc1nccs1` has an IC50 of 36.9 µM (cell growth or viability, SRB; 96 h).
`COc1cc(CNC(=O)CCCC/C=C/C(C)C)ccc1OCc1cn(-c2ccc(Cl)cc2)nn1` has a growth percent of 79.2% (SRB; 10 µM, 48 h).
`COC(=O)c1c(-c2ccc([N+](=O)[O-])cc2)c2n(c1C(=O)OC)CCn1cccc1-2` gave an IC50 of 82.3 µM (cell growth or viability, MTT; 48 h).
For `C[C@]1([N+](=O)[O-])C(=O)c2ccccc2O[C@@H]1CC(=O)NCc1ccccc1`, the IC50 was 9.91 µM (cell growth or viability, SRB; 96 h).
`COc1cc(CNC(=O)CCCC/C=C/C(C)C)ccc1OCc1cn(-c2ccccc2Cl)nn1` has a growth percent of 80.6% (SRB; 10 µM, 48 h).
For `N#CC(=Cc1ccc([N+](=O)[O-])cc1)C(=O)Nc1nnc(NC(=O)c2ccccc2)s1`, the IC50 was 75.2 µM (cell growth or viability, MTT; 48 h).
`CNC(=O)C[C@H]1Oc2ccccc2C(=O)[C@]1(C)[N+](=O)[O-]` gave an IC50 of > 50 µM (cell growth or viability, SRB; 96 h).
For `COc1cc(CNC(=O)CCCC/C=C/C(C)C)ccc1OCc1cn(-c2ccc(C)cc2)nn1`, the growth percent was 84.2% (SRB; 10 µM, 48 h).
For `CSC(SC)=C(C#N)C(=O)Nc1nnc(NC(=O)c2ccccc2)s1`, the IC50 was 12.2 µM (cell growth or viability, MTT; 48 h).
`O=c1[nH]nc(O)c2c(-c3ccccc3)c3n(c12)CCn1cccc1-3` has an IC50 of 91.2 µM (cell growth or viability, MTT; 48 h).
For `COc1cccc2c1C(=O)c1c(O)c3c(c(O)c1C2=O)C[C@@](O)(C(=O)CO)C[C@@H]3O[C@H]1C[C@H](N)[C@H](O)[C@H](C)O1`, “GRPR mRNA level” read 93.2 ± 7.11% (RT-qPCR; IC50 concentration, 72 h plus 24 h recovery; reference: untreated).
The IC50 of `CC[C@]1([N+](=O)[O-])C(=O)c2ccccc2O[C@@H]1CC(=O)NC12CC3CC(CC(C3)C1)C2` is reported as 6.81 µM (cell growth or viability, SRB; 96 h).
With `COC(=O)c1c(-c2ccc(Cl)cc2Cl)c2n(c1C(=O)OC)CCn1cccc1-2` the IC50 was 81.1 µM (cell growth or viability, MTT; 48 h).
`CSCC[C@H](NC(=O)[C@H](CC(C)C)NC(=O)[C@H](Cc1c[nH]cn1)NC(=O)CNC(=O)[C@@H](NC(=O)[C@H](C)NC(=O)[C@H](Cc1c[nH]c2ccccc12)NC(=O)[C@H](CCC(N)=O)NC(=O)CCCCCNC(=O)[C@H](CCC(=O)NCCCC[C@@H]1NC(=O)[C@@H](Cc2ccc(O)cc2)NC(=O)[C@H](CC(=O)O)NC(=O)CNC(=O)[C@H](CCCNC(=N)N)NC1=O)NC(=O)CN1CCN(CC(=O)O)CCN(CC(=O)O)CC1)C(C)C)C(N)=O` [copper-64 labelled] has an internalization of < 1% (up to 120 min, 37 °C; reference: added activity).
`O=c1[nH]nc(O)c2c(-c3ccc(F)cc3)c3n(c12)CCn1cccc1-3` has an IC50 of 74.6 µM (cell growth or viability, MTT; 48 h).
With `COc1cc(CNC(=O)CCCC/C=C/C(C)C)ccc1OCc1cn(-c2ccc(Cl)c(Cl)c2)nn1` the growth percent was 77.1% (SRB; 10 µM, 48 h).
`C#C[C@@]1(O)[C@@H](CO)O[C@@H](n2cc(Cl)c3c(N)ncnc32)[C@@H]1O` gave a GI50 of 0.192 µM (cell growth or viability, SRB; 48 h).
With `CC[C@]1([N+](=O)[O-])C(=O)c2ccccc2O[C@@H]1CC(=O)NC1CCCCC1` the IC50 was > 50 µM (cell growth or viability, SRB; 96 h).
For `COC(=O)c1c(-c2cc(OC)c(OC)c(OC)c2)c2n(c1C(=O)OC)CCn1cccc1-2`, the IC50 was 72.7 µM (cell growth or viability, MTT; 48 h).
For `C[C@]1([N+](=O)[O-])C(=O)c2ccc(F)cc2O[C@@H]1CC(=O)NC12CC3CC(CC(C3)C1)C2`, the IC50 was 3.03 µM (cell growth or viability, SRB; 96 h).
`COc1cc(CNC(=O)CCCC/C=C/C(C)C)ccc1OCc1cn(-c2ccc(Br)cc2)nn1` has a growth percent of 73.7% (SRB; 10 µM, 48 h).
The IC50 of `COC(=O)c1c(-c2ccc(Br)cc2)c2n(c1C(=O)OC)CCn1cccc1-2` is reported as 91.2 µM (cell growth or viability, MTT; 48 h).
The growth percent of `COc1cc(CNC(=O)C[C@H](C)CCC=C(C)C)ccc1OCc1cn(-c2ccc(Cl)cc2)nn1` is reported as 80.2% (SRB; 10 µM, 48 h).
The IC50 of `O=c1[nH]nc(O)c2c(-c3ccc(Cl)cc3)c3n(c12)CCn1cccc1-3` is reported as 57.9 µM (cell growth or viability, MTT; 48 h).
